# Results of several laboratories.
# Numbered parts are unrelated; each lists some results of a single study.

# Block 1
# Target: Sal-like protein 4, full length isoform B (SALL4, Homo sapiens, UniProt Q9UJQ4-2, residues 1-616)
# Technique: universal PBM
# Form: double-stranded DNA, one strand shown
# Medium: in vitro
# Concentration: not given
# Setting: 8-mer, flanks averaged, mean of replicates
# Reading: higher = stronger binding
Sequence,E-score
GCGCCAGA,-0.243
GCATACAC,0.0925
AGACGACG,-0.185
CCGCGCCA,-0.213
AGTGATTG,0.0869
ACTTAAGA,0.176
AATTGGAG,0.095
CAGCCCAC,-0.309
ACCCAGCA,-0.26
AAGAGCAC,-0.0866
ATGGACGA,0.123
CCTACTGA,-0.0797
CTTTGCGA,-0.127
ATTCGCTG,-0.0482
GCCATAGC,0.0329
GCTGAGCA,-0.203
CACGCTCC,-0.288
AGTAATGA,0.269

# Block 2
# Target: Ras GTPase-activating protein-binding protein 1, C-terminal RGG region (G3BP1, Homo sapiens, UniProt Q13283)
# UniProt Q13283, sequence (whole entry, looked up): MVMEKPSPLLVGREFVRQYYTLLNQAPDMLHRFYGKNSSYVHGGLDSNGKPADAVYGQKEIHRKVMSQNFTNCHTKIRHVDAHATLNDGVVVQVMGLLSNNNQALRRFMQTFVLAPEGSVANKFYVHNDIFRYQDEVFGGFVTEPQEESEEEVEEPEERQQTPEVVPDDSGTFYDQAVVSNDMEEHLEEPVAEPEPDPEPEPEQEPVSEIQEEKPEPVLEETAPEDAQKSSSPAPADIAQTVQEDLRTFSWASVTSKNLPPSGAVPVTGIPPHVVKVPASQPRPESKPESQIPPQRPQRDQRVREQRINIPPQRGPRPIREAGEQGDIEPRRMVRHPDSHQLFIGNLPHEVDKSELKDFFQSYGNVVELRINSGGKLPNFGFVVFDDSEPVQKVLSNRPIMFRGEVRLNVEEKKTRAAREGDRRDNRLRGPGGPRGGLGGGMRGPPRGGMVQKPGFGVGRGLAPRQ
# Technique: RNA Bind-n-Seq
# Form: RNA
# Medium: in vitro
# Concentration: 1 µM
# Setting: whole 134-nt RNA, ends assumed
# Together with: 150 mM KCl
# Reference: input library
# Reading: higher = stronger binding
# All sequences stand within: GGGAGUUCUACAGUCCGACGAUC … UGGAAUUCUCGGGUGUCAAGG
Sequence,log2 enrichment
UCAAGUCCUGUGCUACACAUCGUAUGUACCGAAUCGGUUUUUGGUUUUUGGUGGAAAGUAUUAUGUUACGCCGUUCGGAUCUGCACUUCC,-1.12
GCAGGAAGUAAAACCAAAUGGAAAUGCUUCGGAUAGUGGCAGGGGUGGGGGUUGCUAAGGAAAGGGUGGGAUGGGAGUGGGUAAAGAGUU,1.72
CCUCAAGUCCUGUGCUACACAUCGUAUGUACCGAAUCGGGGAAGGAAGGAAGGAAAGUAUUAUGUUACGCCGUUCGGAUCUGCACUUCCA,-1.34
GCAGGAAGUAAAAACAAAUGGAAAUGCUUCGGAUAGUGGCAGGGGUGGGGGUUGCUAAGGAAAGGGUGGGGUGGGAGUGGGUAAAGAGUU,1.98
AAGUCCUGUGCUACACAUCGUAUGUACCGAAUCGGGUUUGGGGUUUGGGGUUUGGGGAAAGUAUUAUGUUACGCCGUUCGGAUCUGCACU,1.53
GUCCUGUGCUACACAUCGUAUGUACCGAAUCAAAUUUUUUUAAACCCCCAAAUUUAAAAAAGUAUUAUGUUACGCCGUUCGGAUCUGCAC,-0.812
UCCUCAAGUCCUGUGCUACACAUCGUAUGUACCGAAUCGGAAGGAAGGAAGGAAAGUAUUAUGUUACGCCGUUCGGAUCUGCACUUCCAG,-0.684
UCAAGUCCUGUGCUACACAUCGUAUGUACCGAAUCGGGAAGGGGAAGGGGAAGGGAAAGUAUUAUGUUACGCCGUUCGGAUCUGCACUUC,2.45
CUCAAGUCCUGUGCUACACAUCGUAUGUACCGAAUCGGGGCGGGGCGGGGCGGAAAGUAUUAUGUUACGCCGUUCGGAUCUGCACUUCCA,1.03
CCUCAAGUCCUGUGCUACACAUCGUAUGUACCGAAUCGGAGGUGGUUUUUGGAAAGUAUUAUGUUACGCCGUUCGGAUCUGCACUUCCAG,-0.546
UGUUGGAGGGACGAUGGUCCGCUCCGGGCAGGACCCUUACGCCCGCAACAAGUUCAACCAGGUGGAGAGUGAUAAGCUUCGAAUGGACAG,-2.04
ACCAUGCAGGUGGGCAUCUUUGGGAAGUGGGGCAAGGGGGGGAUAGGGAGGGGGGUAACACUUUAGGAACAGGUGGUCCCAGGUCGUUUC,2.59
UGUGAGGUGGAUUUUGUUUAUUUUUUUAGCUCAUUUCCAGGGGUGGGAAUUUUUUUUUAAUAUGUGUCAUGAAUAAAGUUGUUUUUGAAA,2.99
ACCAUGCAGGUGGUCAUCUUUGGGAAGUGGGGCAAGGGGGGGAUAGGGAGGGGGGUAACACUUUGGGAACAGGUGGUCCCAGGUCGUUUC,-1.44

# Block 3
# Target: RNA binding protein fox-1 homolog 2, RRM domain, GST-SBP tag (RBFOX2, Homo sapiens, UniProt O43251-10, residues 100-194)
# Technique: RNA Bind-n-Seq
# Form: RNA
# Medium: in vitro
# Concentration: 365 nM
# Setting: natural RNA segment, single round, ends assumed
# Reference: no-protein control
# Reading: higher = stronger binding
# All sequences stand within: GGGAGUUCUACAGUCCGACGAUC … UGGAAUUCUCGGGUGCCAA
# Target sequence (chain): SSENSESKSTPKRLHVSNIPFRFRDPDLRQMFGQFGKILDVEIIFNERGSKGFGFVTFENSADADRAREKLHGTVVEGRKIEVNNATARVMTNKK
Sequence,RBNS enrichment (R)
ACCUUAUUGCUAGUACCUAGAAACACACAAGGCUAUCCAGCCAAAUCUUAAUGUAAAGUAGCUAGAGCCAUGGAAGUCCAGUAUGAAUUAAAGGAAAAAAAGUAUUGAAU,0.532
CCGGUACCCUAGGCCAGGCGGAUGCCUCGACGGUGCCAACCACAGCGACCCGGGCGCCAGCCCAGGUCACCGAGCCCUACUGGCGCCGAGUGGGGCGCGUUUGUUCCUCA,0.348
AUUGUUGUACAGGAUCUUCAGUUAUUCGAGGGGAAUGAGGCAGGUCAAGCCGAUGCUAGCCACUAGUUUGAUUUUUUUUCUGUUUUAUAGUUUGCGCUGCAUGGUACUUG,1.84
AAUGGAAUGUUAACUGAAUGGAAUUAAACAUAGCAAUUGUCAAGCCAUCAAAAUUAUAUAUCGAACCACUUAGGCAUGUUACGGGGUAAAGUCCUCACCCCUGCAUUUGA,1.69
CUUUAACUAGAAAGUGUUUAUUUUGGCUACAUUGUUCACCUUCUGCUGUAUUGGUAUUUGUCUGUUGGGAUUUCAAGGGAGUGUAGAGAAGACAGAAGGAAAGCUGAGAG,1.09
AGCUAUUAGUAGUGGGUGGUCACCAUGACUGCCCAAGCUACAACAGCUGAUCUCUUCCCAGGUCACCUUUGUCCUUACUGCCCCCUUUUCCUUGAUUUUUUUUUCCUUUA,0.349
UUUUUUGUGUUAACAGCUUUUUGACACAAUUACUGGGUAAUUUCUAAUAUAGGCAGCAGACUGUUUUACGGGUUGCUGUUUUAACAUGGGUUUUUGUCAGAUCCAUGGUC,0.248
AACAAUUUCAACAAUGACACAAAAAUUCACAUGGAAAUGGGGAAGAUGGUCUGUUUUGACAGAAACUGACAGGAAUCAAAACAAUCGAAUUUUGAAUUGAGUGAAGUGCA,0.573
GCAGGGUGCGCGAAUGCGCAAGCGCCGGGCAGAGUCCCGUGCGGCUUCUGCUGUGGGACGUGGGCCAGGCACCCUCAUUCUCUGGGCAUCUCUGCUGCAAGUGGACAAGA,0.295
GCCAAGAAGGCCACCAUGCUUUUACUGUCCAGACCAAAAUGUUGCUCUCAAUCCCCAACAUUUGAUAGUCUUAGCAUUUAAACAAAAUCUCCGAGUGAGGGAGGCCAGCC,0.372
UUCUAAGAGAUUUGCAAUGCAAGGUCUCCUUGACCCCUUGCCACAACUGGAAACACUUGAAAGGGGACCCCAGGGCCAGCUGUUUCAGGGGUUUCCUGGACCACCCACUG,0.202
ACAUGGUGACCCAAGAGUCUGGGCCUGCUCACCGCAAAGAGUUCACCAUGACUUGCCGGGUGGAGCGUUUCAUUGAGAUUGGCAGUGGCACUUCCAAAAAGCUGGCAAAG,0.286

# Block 4
# Target: RING finger protein unkempt homolog, zinc fingers 1-6, GST-SBP tag (UNK, Homo sapiens, UniProt Q9C0B0, residues 30-357)
# UniProt Q9C0B0, sequence (30-357, looked up): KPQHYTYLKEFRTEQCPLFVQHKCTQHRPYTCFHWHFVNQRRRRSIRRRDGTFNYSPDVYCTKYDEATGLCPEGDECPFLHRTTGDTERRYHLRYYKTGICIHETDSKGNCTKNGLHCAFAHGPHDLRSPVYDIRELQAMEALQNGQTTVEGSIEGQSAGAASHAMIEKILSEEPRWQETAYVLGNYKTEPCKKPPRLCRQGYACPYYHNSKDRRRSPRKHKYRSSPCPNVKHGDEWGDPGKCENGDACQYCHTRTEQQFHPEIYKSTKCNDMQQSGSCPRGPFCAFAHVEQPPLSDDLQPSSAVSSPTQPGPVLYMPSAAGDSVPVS
# Technique: RNA Bind-n-Seq
# Form: RNA
# Medium: in vitro
# Concentration: not given
# Setting: RNA with constant flanks, human and mouse sites, ends assumed
# Reference: input RNA pool
# Reading: higher = stronger binding
# All sequences stand within: GGGAGUUCUACAGUCCGACGAUC … CAACAGAGGAUUGAGCAUCA
Sequence,bound/input enrichment [ratio]
CUGUCACACUCCAAGGGCCACCAGAAGCGCAAGGCCCUCAAGACCACAGUCAUCCUCAUCCUGGCUUUCUUCGCCUGUUGGCUGCCUUACUACAUUGGGAUCAGCAUCGACUCCUUCAUC,0.144
ACUCACGUGCCCAUGUUACAAGUCUGGACUGCCGACAAACCACAUCCACAGGAAGAGUAUUUAGAUUGCCUGUGGGCCCAGAUUCAGAAAUUGAAAAAAGACCGGUGGCAGGAGAGGCAC,0.467
UUAAGAAAAAUGCCUCACAUUAAACAUGUGGAUCUAAGGUUGAACGUAAUUAGGAAGCUGAUAGCAGAUGAAGUGGACUUUCUACAGCAUGUUACUCAGCUUGACCUACGAGACAAUAAG,0.153
CCUACUCCCCAUCACCCAAUCCCUAUCAGACGGCCAUGUAUCCAAUCAGAAGUGCCUAUCCCCAGCAGAAUCUGUAUGCCCAGGGAGCCUACUACACACAACCUGUGUAUGCUGCCCAGC,0.223
AAAUAAAUAUUUAAUUUUUUAAAUUGCUCUUGUAUAAUCAGAUGCCCCUUUUAGUAUUAUUUUAGAAGCGUUGGGAGGGUUUUGCCUAAAGUACAAUUUAUCGGGAAAAACUAGAUUUUA,74.1
GAGCAAAAACACAGGGAAGAACUGGAGCAAUUGAAGCAAUUGACUUUCAAGGACAGUAAGAUAGAUUCUGUUGCUGUUAACAUUUCAAACUUGGUACUUGAGAAUCAACCACCUCGGAUU,0.272
GGACACUGUGUACACAUGCGGGGAUUACCAUACAGAGCUACUGAGAAUGACAUUUAUAAUUUUUUUUCACCACUCAACCCUGUGAGAGUACAUAUUGAGAUUGGACCUGAUGGCAGAGUA,1.58
UGUGGUGGUAAUGUAAUAUUCAGAGUAUACUUUAAUGUUAGUGAGAAAUUCAGUUCUGCAUAGCAGGCUUUUGCUAACUUACCUCUUGAAAGUUUUGUGUCUCUGGGCAGUGGUGGCGAA,1.09
UUUUUGUACUUUGUAGACUCUGGAGCCCACUGUCCUCUCGGCUCUUUGAAGCUGUGCCCACUACUGCUUUUGUAACUGGAGUCUUUUAACUUCCAUGACGGCACCGCCUGCCGUAUGUUC,0.164
GGCACAUUUCCUGAUGCUCAGCUUCCAUCCAAAAGGAUCAUUGGCCCCAAAAACUAUGAGUUUUUGAAGUCGAAGAGAGAGGAGUUCCAGGAGUAUCUGCAGAAACUUGUGCAGCACCCG,0.103
CCAACAGGGGAAGCAGCAGCUAAUACCCAGCAGACACUUACUUUCUAUGAGCUAGACCUUGGUUUAAAUCAUGUGGUCCGAAAAUACAGUGAACCUUUGGAGGAACACGGCAACUUCCUU,0.193

# Block 5
# Target: Histone acetyltransferase KAT6A, winged helix 2, GST fusion (KAT6A, Homo sapiens, UniProt Q92794, residues 85-181)
# Technique: protein binding microarray
# Form: double-stranded DNA, one strand shown
# Medium: in vitro
# Concentration: not given
# Setting: 8-mer, flanks averaged, mean of 2 arrays, mostly near background
# Reference: not given
# Reading: higher = stronger binding
# Target sequence (chain): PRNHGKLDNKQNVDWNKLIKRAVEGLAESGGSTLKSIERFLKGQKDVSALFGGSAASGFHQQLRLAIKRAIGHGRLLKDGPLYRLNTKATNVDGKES
Sequence,E-score
CTGCTATC,0.129
TACTAGAA,-0.0829
ACACACTC,0.0692
AAAATCGA,0.0771
TGTGAAAA,0.0467
GCCTCTCC,0.0785
GGGGCATA,-0.0241
AGCCACCG,0.146
AAACCACC,-0.0966
CAGGTTAA,-0.131
GAGGATTA,-0.0194
GTGATACA,-0.0319
GAGAACAC,0.0958
ATTCCAGA,-0.0428
AGTCGGAG,0.106
ACCTATGC,-0.173
TGGCACAA,-0.0168
CATTACCA,-0.0214
CAAGAAGG,-0.123
AAGTGCTA,-0.161
CCCTCGAG,-0.102
ACCGTAAG,-0.0795
ATAATATC,0.0441
GAACCCCA,-0.0947
ACTTATAT,0.0521

# For quick reference, copied from above (block 5):
Sequence,E-score
ACCTATGC,-0.173
TGGCACAA,-0.0168
CATTACCA,-0.0214
CAAGAAGG,-0.123
AAGTGCTA,-0.161
CCCTCGAG,-0.102
ACCGTAAG,-0.0795
